Experimental data from different studies.
Protocols differ between the studies behind these lines. Values joined by “and” are separate records of one study, mostly repeats; a detail may differ. ± marks the error that the study gave.
USP3 ZnF-UBD domain: Ubiquitin carboxyl-terminal hydrolase 3, ZnF-UBD domain (USP3, Homo sapiens, UniProt Q9Y6I4)
UniProt Q9Y6I4, sequence (whole entry, looked up): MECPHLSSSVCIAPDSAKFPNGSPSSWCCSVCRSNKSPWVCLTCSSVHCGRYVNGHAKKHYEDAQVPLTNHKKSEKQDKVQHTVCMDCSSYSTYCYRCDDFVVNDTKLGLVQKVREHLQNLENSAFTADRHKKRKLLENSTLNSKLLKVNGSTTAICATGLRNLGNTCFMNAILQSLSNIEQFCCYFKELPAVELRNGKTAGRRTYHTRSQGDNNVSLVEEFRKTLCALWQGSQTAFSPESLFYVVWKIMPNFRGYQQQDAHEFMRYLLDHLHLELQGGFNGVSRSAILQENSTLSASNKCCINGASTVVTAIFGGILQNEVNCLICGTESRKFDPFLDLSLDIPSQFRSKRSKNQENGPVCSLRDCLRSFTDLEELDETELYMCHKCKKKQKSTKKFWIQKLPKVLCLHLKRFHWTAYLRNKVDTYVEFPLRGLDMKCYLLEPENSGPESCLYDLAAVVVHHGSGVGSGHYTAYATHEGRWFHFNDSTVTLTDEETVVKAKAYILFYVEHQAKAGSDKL
UniProt P52564, sequence (whole entry, looked up): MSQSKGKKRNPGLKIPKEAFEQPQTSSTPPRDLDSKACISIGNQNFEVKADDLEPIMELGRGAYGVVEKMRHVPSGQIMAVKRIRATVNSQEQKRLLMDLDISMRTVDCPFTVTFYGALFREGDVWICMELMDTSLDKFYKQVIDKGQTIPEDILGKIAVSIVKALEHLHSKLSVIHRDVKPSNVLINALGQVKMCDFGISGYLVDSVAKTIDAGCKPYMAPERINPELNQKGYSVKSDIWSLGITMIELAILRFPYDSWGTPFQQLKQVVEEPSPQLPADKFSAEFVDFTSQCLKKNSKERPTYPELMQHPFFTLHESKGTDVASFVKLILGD

SMILES | target or system | test | system | setting | how to read | measurement | value
CC(C)c1nc(N(C)S(C)(=O)=O)nc(-c2ccc(F)cc2)c1/C=C/[C@@H](O)C[C@@H](O)CC(=O)O |  | refers to: oropharyngeal pain | healthy men | oral, dose not given, 8 days, treatment-emergent, crossover trial |  | subjects with adverse event | 0%
CSCC[C@H](N)C(=O)N[C@@H](CC(C)C)C(=O)N[C@@H](CCCNC(=N)N)C(=O)N[C@@H](Cc1c[nH]c2ccccc12)C(=O)N[C@@H](CO)C(=O)N[C@@H](CCCNC(=N)N)C(=O)N[C@@H](CCCCN)C(=O)N[C@@H](CC(C)C)C(=O)N1CCC[C@H]1C(=O)N[C@@H](CS)C(=O)N[C@H](C(=O)N[C@@H](CO)C(N)=O)C(C)C |  | 12G5 competition, SUP-T1 cells | human plasma | concentration not given, 2 h |  | remaining activity | 8 ± 2%
CC(C)Cn1cnc2c(N)nc3ccccc3c21 |  |  | C57BL/6J mice, female, beta-naphthoflavone-treated, liver microsomes | 1 µM, 30 min |  | remaining compound | 5%
CN(C(=O)n1cnc(-c2cccnc2)c1)C1CCCCC1 |  |  | Wistar rat, cerebral cortex | oral, 10 mg/kg/day of BIA 10-2474, 4 h, repeated 5 days |  | concentration | 27.5 ± 4.4 ng/g
CN(C)N=Nc1[nH]cnc1C(N)=O |  |  | human patients, plasma | intravenous infusion, 1000 mg/m^2, 1 h infusion, cycle 1 day 1, alone |  | Vz | 34.4 L/m²
C[C@@H](N)C1CCN(S(=O)(=O)c2cccc3cnccc23)CC1 |  |  | healthy volunteers | 25 mg, fasted |  | participants with serious TEAEs | 0%
CCOc1c([C@H](C)n2nc(C)c3c(N)ncnc32)cc(Cl)c(F)c1[C@@H]1CNC(=O)C1 |  |  | patients, monotherapy | oral, 15 mg once daily, cycle 1 day 1 |  | AUC(0-last) geometric mean | 3.69 µM·h
Cc1ccc(CNC(=O)c2cc(/C=C/C(=O)O)cc(-c3ccc4ncnn4c3)c2)cc1 |  |  | mouse, liver microsomes | 1 µg/mL, 60 min, 0.5 mg/mL protein, added: NADPH |  | metabolic stability | stable
COc1cccc2c1C(=O)c1c(O)c3c(c(O)c1C2=O)C[C@@](O)(C(=O)CO)C[C@@H]3O[C@H]1C[C@H](NC(=O)[C@@H]2CCCN2C(=O)CN)[C@H](O)[C@H](C)O1 |  |  | healthy mouse, plasma | intravenous, 849.5 mg/kg PhAc-ALGP-Dox |  | AUC | 1.89 µM·h
COc1ccc2c(c1)CN(C(=O)CCN1CCC(Cc3ccccc3)CC1)CC[S@@+]2[O-] |  | telemetry | conscious dogs | intravenous, 2 mg/kg, before dosing |  | PQ interval | 94 ± 12 ms
O=C(O)CC[C@H](NC(=O)N[C@@H](CCCCNC(=O)[C@H](Cc1ccc2ccccc2c1)NC(=O)CCCCCNC(=O)CN1CCN(CC(=O)O)CCN(CC(=O)O)CCN(CC(=O)O)CC1)C(=O)O)C(=O)O [gallium-68 labelled] |  | gamma counting | mouse, 22Rv1 xenograft, bone | intravenous, 3.7 MBq, 2 h |  | tissue uptake | 3.45 ± 0.5 %ID/g
O=C(NCc1cc[nH]n1)c1ccc(C2CCCCC2)cc1 |  | hepatocyte stability | cryopreserved mouse hepatocytes | 1 µM |  | hepatic clearance | 81 mL/min/kg
O=C(O)Cn1cnc2c(oc3ccccc32)c1=O | USP3 ZnF-UBD domain |  |  |  |  | Kd | > 1000 µM
O=C(Nc1ccc([C@H]2[C@@H](F)[C@@H](F)C[C@@H](F)[C@H]2F)cc1)c1cn[nH]c1 |  |  | cryopreserved human hepatocytes | 1 µM |  | hepatic clearance | 6.2 mL/min/kg
Cc1ccc(CCC(=O)Nc2nnc(S(N)(=O)=O)s2)cc1 |  |  | BALB/c mouse, male, plasma | oral, 20 mg/kg, 1 h |  | unbound plasma concentration | 0.882 ng/mL
C#C[C@]1(CO)O[C@@H](n2cnc3c(N)nc(F)nc32)C[C@@H]1O |  |  | human, plasma | oral, 400 mg single dose, extrapolated beyond 96 h |  | AUC(0-168 h) | 47.5 µM·h
CC(C)(C(=O)N1CCOc2c(C#N)cncc2C1)C(F)F |  | refers to: musculoskeletal disorders | healthy humans, both sexes | oral, 10 mg single dose |  | share of subjects with TEAE | 0%
CCO[C@H]1CCN(Cc2c(OC)cc(C)c3[nH]ccc23)[C@H](c2ccc(C(=O)O)cc2)C1 |  |  | PNH patients, active haemolysis | oral, 200 mg, treatment |  | incidence alkaline phosphatase increase | 0%
CCN1CCN(Cc2ccc(NC(=O)c3ccc(C)c(NC(=O)c4cncc(-c5cccs5)c4)c3)cc2C(F)(F)F)CC1 |  | LC-MS/MS | C57BL/6 mouse, plasma | intraperitoneal, 10 mg/kg single dose, 1 h |  | plasma concentration | 316 ng/mL and 285 ng/mL and 381 ng/mL
CC(C)[C@H](NC(=O)[C@@H](NC(=O)CCCc1cn(CC(O)CN2CCN(CC(=O)O)CCN(CC(=O)O)CCN(CC(=O)O)CC2)nn1)[C@@H](C)O)C(=O)N[C@@H](CCCNC(=N)N)C(=O)N[C@H](C(=O)N[C@@H](CO)C(=O)N[C@@H](C)C(=O)N[C@@H](CC(=O)O)C(=O)O)[C@@H](C)O (stereo partly drawn) |  |  | healthy male humans, plasma | intravenous, 0.08 mmol/kg |  | volume of distribution | 0.201 ± 0.021 L/kg
O=C(Nc1nc2cccc(-c3ccc(CN4CCS(=O)(=O)CC4)cc3)n2n1)C1CC1 |  | refers to: pain in extremity | human rheumatoid arthritis patients | oral, 30 mg once daily, 4 weeks, regardless of relatedness |  | treatment-emergent adverse events | 0%
NC(=O)[C@H]1CCCN1C(=O)CCC(=O)O | USP3 ZnF-UBD domain |  |  |  |  | Kd | 165 µM
COc1cccc2c1C(=O)c1c(O)c3c(c(O)c1C2=O)C[C@@](O)(C(=O)CO)C[C@@H]3O[C@H]1C[C@H](NC(=O)[C@@H]2CCCN2C(=O)CNC(=O)[C@@H](N)CC(C)C)[C@H](O)[C@H](C)O1 |  |  | healthy mouse, plasma | intravenous, 23.6 mg/kg PhAc-ALGP-Dox |  | AUC | 0.09 µM·h

SMILES | target or system | test | system | setting | how to read | measurement | value
CNCc1ccc(-c2[nH]c3cc(F)cc4c3c2CCNC4=O)cc1 |  |  | human patients | oral, 600 mg twice daily, grade 1 |  | dysgeusia incidence | 11.5%
c1ncc(-c2ccc(C3CCCCC3)cc2)cn1 |  | hepatocyte stability | cryopreserved rat hepatocytes | 1 µM |  | hepatic clearance | 37 mL/min/kg
CCN1/C(=C/C(C)=O)Sc2ccc(F)cc21 |  |  | cynomolgus monkey | oral, 100 mg/kg, 1 h post-dose |  | PR interval | 88 ± 4 ms
CNC(=O)c1ccc(-c2cnc3ncc(Cc4ccc5ncccc5c4)n3n2)cc1F |  | refers to: Ascites, all grades | gastric cancer patients | oral, 600 mg twice daily, expansion cohort, any causality |  | patients with adverse event | 11%
Cc1cc(Nc2ccc(S(F)(F)(F)(F)F)cc2)n2nc(C(C)(F)F)nc2n1 | Plasmodium vivax | 12-lead Holter ECG | human malaria patients | oral, 600 mg, QTc above 450 ms |  | patients with QTcB above threshold | 11.1%
CC(C)n1c(Nc2cccnc2)nc2cnc(Nc3ccc(N4CCN(C)CC4)cc3)nc21 |  | refers to: γ-glutamyltransferase increased | healthy male subjects | oral, 100 mg, study, added: gemfibrozil |  | subjects with adverse event | 0%
C[C@@H]1OC(=O)[C@H](Cc2ccccc2)[C@H]1O |  | soil adsorption | clay loam soil | pH 7.2, organic carbon 4.4 % |  | KFoc | 29.3 mL/g
O=C(/C=C/CCc1ccc(O)cc1)/C=C/c1ccc(O)cc1 |  |  | nude mouse MCF7 xenograft | 20 mg/kg, day 9 |  | body weight | 20.6 ± 1.07 g
CN1CCC(c2ccc(-c3ccc(C4CCCCC4)cc3)cn2)CC1 |  | liver microsome stability | human liver microsomes | 1 µM, without NADPH |  | hepatic clearance | 12 mL/min/kg
Cc1cc(C(=O)NC(C)(C)COc2cccc3c2C(N)=NS(=O)(=O)N3)cc(C)n1 | human peripheral blood lymphocytes | CBPI, preliminary test |  | 2 µg/mL, 24 h | baseline: vehicle control | cytotoxicity | 12%
COCCC(=O)Nc1ccc([C@H]2[C@@H](F)[C@@H](F)C[C@@H](F)[C@H]2F)cc1 |  | hepatocyte stability | cryopreserved mouse hepatocytes | 1 µM |  | hepatic clearance | 64 mL/min/kg
O=C(Nc1ccc(Cl)cc1)Nc1ccc(Cl)c(Cl)c1 |  |  | whole cow milk | 20 nM nominal |  | dose fraction in milk fat | 85.7%
OC[C@H]1O[C@@H](c2ccc(F)c(Cc3cc4ccccc4s3)c2)[C@H](O)[C@@H](O)[C@@H]1O |  |  | Japanese patients, type 1 diabetes | oral, 50 mg/day, onset day 7 | baseline: patients | hypoglycaemia-related adverse event | 3%
C[C@H]1CN(C(=O)CC#N)[C@]12CCN(c1ncnc3[nH]ccc13)C2 |  |  | healthy human | oral, 3 mg single |  | subjects with Paraesthesia | 0%
O=C(OC(C(F)(F)F)C(F)(F)F)N1CCN(Cc2cccc(Oc3ccccc3)c2)CC1 |  | PET blocking study | rhesus monkey, brain STR | 0.3 mg/kg, compound pretreatment, added: [18F]T-401 tracer |  | Ktrans | 0.0041 min⁻¹
O=C(c1ccc([C@H]2[C@@H](F)[C@@H](F)C[C@@H](F)[C@H]2F)cc1)N1CC(O)C1 |  | hepatocyte stability | cryopreserved human hepatocytes | 1 µM |  | hepatic clearance | 6.2 mL/min/kg
CC[C@@H]1[C@H](F)C(=O)N[C@@H]1COc1nccc2cc(C(N)=O)c(OC)cc12 | MAP2K6 (Homo sapiens, UniProt P52564) | ATP-site probe binding, inhibitor, ActivX ATP probe profiling | THP-1 cell lysate | probe site Lys1 |  | IC50 | 3 µM
CC(C)C[C@@H]1NC(=O)CN(C)C(=O)[C@H](Cc2ccccc2)NCc2ccc([nH]2)CNC1=O |  | PAMPA | 2% lecithin in dodecane | 100 µM, 17 h, pH 6.4, 37 °C |  | -log Pe | 5.89 + 0.08
Cc1cn(C(=O)c2c(-c3c(Cl)cc(Cl)cc3Cl)noc2C(C)(C)F)c2cccc(/C=C/C(=O)O)c12 |  |  | human patients | 1400 mg bid, cycle 8 day 1 |  | AUC(0-8h) | 313 µg·h/mL
Cc1ccc([C@@H]2O[C@H](CO)[C@@H](O)[C@H](O)[C@H]2O)cc1Cc1ccc(-c2ccc(F)cc2)s1 |  |  | Japanese type 2 diabetes patients | 200 mg, day 17, 24 h urine collection | baseline: baseline | urinary magnesium excretion change | 4.57 mg
Cn1cc(Nc2nccc(-c3ccc4c(c3)CN(C3COC3)CC[C@H]4NC(=O)c3cn(C(C)(C)C)nn3)n2)cn1 |  | refers to: Plasmablasts count | human, clinical trial, whole blood | 50 mg twice daily, follow-up |  | percent change from baseline | 20.9%
Cc1cc(-c2nccc3c2ccn3CC(=O)Nc2ccc(-c3cnccn3)cn2)ccn1 |  |  | human | 15 mg once daily, multiple ascending dose |  | subjects with suture rupture | 0%

Repeated from above:
SMILES | target or system | test | system | setting | how to read | measurement | value
CC[C@@H]1[C@H](F)C(=O)N[C@@H]1COc1nccc2cc(C(N)=O)c(OC)cc12 | MAP2K6 (Homo sapiens, UniProt P52564) | ATP-site probe binding, inhibitor, ActivX ATP probe profiling | THP-1 cell lysate | probe site Lys1 |  | IC50 | 3 µM
CC(C)C[C@@H]1NC(=O)CN(C)C(=O)[C@H](Cc2ccccc2)NCc2ccc([nH]2)CNC1=O |  | PAMPA | 2% lecithin in dodecane | 100 µM, 17 h, pH 6.4, 37 °C |  | -log Pe | 5.89 + 0.08
Cc1cn(C(=O)c2c(-c3c(Cl)cc(Cl)cc3Cl)noc2C(C)(C)F)c2cccc(/C=C/C(=O)O)c12 |  |  | human patients | 1400 mg bid, cycle 8 day 1 |  | AUC(0-8h) | 313 µg·h/mL
